Literature values, collected from citations in different studies.
Numbered parts are unrelated; values within a part may stem from several laboratories. ± gives the spread as reported.
Sequence of UniProt Q08881 (whole entry, looked up): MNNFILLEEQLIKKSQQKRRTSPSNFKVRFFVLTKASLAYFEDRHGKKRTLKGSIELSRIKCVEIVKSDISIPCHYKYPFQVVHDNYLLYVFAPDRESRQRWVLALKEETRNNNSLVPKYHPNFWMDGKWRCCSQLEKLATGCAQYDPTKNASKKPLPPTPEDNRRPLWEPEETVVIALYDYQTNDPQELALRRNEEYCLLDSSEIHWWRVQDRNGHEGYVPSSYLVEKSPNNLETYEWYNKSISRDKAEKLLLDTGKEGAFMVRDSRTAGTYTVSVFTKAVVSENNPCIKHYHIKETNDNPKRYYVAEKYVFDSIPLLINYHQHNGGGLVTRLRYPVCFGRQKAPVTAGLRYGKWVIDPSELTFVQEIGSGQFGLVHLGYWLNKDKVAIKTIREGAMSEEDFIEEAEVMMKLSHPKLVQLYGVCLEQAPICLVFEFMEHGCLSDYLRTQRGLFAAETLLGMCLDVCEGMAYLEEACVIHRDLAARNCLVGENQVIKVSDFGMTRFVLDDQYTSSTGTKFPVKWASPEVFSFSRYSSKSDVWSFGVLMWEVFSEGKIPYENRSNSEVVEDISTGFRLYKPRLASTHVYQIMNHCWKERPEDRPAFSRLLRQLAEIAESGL

Series 1 — organism: Cryptosporidium parvum; method: high-throughput screen; tested at: concentration not given
Structure (SMILES)	activity
COc1ccc(/C=C/C(=O)Nc2ccccc2C(=O)O)cc1OC	inactive
CC(=O)OCC(=O)[C@@]1(O)CC[C@H]2[C@@H]3CCC4=CC(=O)CC[C@]4(C)[C@H]3C(=O)C[C@@]21C	inactive
COc1ccccc1OCC(O)CN1CCN(CC(=O)Nc2c(C)cccc2C)CC1 (centres unmarked)	inactive
C=CC1=C(C(=O)O)N2C(=O)[C@@H](NC(=O)/C(=N\O)c3csc(N)n3)[C@H]2SC1	inactive
O=C1CCc2ccc(OCCCCN3CCN(c4cccc(Cl)c4Cl)CC3)cc2N1	inactive
CCN(CC)CC1CCCCN1CC(=O)N1c2ccccc2C(=O)Nc2cccnc21 (centres unmarked)	inactive
COc1ccc(CCN(C)CCCC(C#N)(c2ccc(OC)c(OC)c2)C(C)C)cc1OC.Cl.O (centres unmarked)	inactive
CC(C(O)c1ccc(O)cc1)N1CCC(Cc2ccccc2)CC1 (centres unmarked)	inactive
CN1CCN(CCCN2c3ccccc3Sc3ccc(Cl)cc32)CC1	inactive
CC(c1cc2ccccc2s1)N(O)C(N)=O (centres unmarked)	inactive
CC=CC(=O)N(CC)c1ccccc1C (mixture of isomers)	inactive
CC(C)(S)[C@@H](N)C(=O)O	inactive
Cc1onc(-c2ccccc2)c1-c1ccc(S(N)(=O)=O)cc1	inactive
O=C(NCCO[N+](=O)[O-])c1cccnc1	inactive
Fc1ccc([C@@H]2CCNC[C@H]2COc2ccc3c(c2)OCO3)cc1.O=C(O)/C=C\C(=O)O	inactive
CC(C)[C@H]1CC[C@H](C(=O)N[C@H](Cc2ccccc2)C(=O)O)CC1	inactive
COC(=O)C1=C(C)NC(C)=C(C(=O)OC)C1c1ccccc1[N+](=O)[O-]	inactive
CCCCc1nc(Cl)c(CO)n1Cc1ccc(-c2ccccc2-c2nn[nH]n2)cc1	inactive
COc1cc2nc(N3CCN(C(=O)c4ccco4)CC3)nc(N)c2cc1OC	inactive
Cc1cc2c(s1)Nc1ccccc1N=C2N1CCN(C)CC1	inactive
O=C(CCCN1CCC(O)(c2ccc(Cl)cc2)CC1)c1ccc(F)cc1	inactive
CN1CCN2c3ncccc3Cc3ccccc3C2C1 (centres unmarked)	inactive
CC1=C(C(=O)O)N2C(=O)[C@@H](NC(=O)[C@H](N)c3ccccc3)[C@H]2SC1.O	inactive
CCOC(=O)OC(C)OC1=C(C(=O)Nc2ccccn2)N(C)S(=O)(=O)c2ccccc21 (centres unmarked)	inactive
O=c1[nH]c(=O)n(C2CCCO2)cc1F (centres unmarked)	inactive

Further values, each from its own experiment
7-alpha-hydroxycholest-4-en-3-one 12-alpha-hydroxylase: 7-alpha-hydroxycholest-4-en-3-one 12-alpha-hydroxylase (Homo sapiens, UniProt Q9UNU6)
Sequence of UniProt Q9UNU6 (whole entry, looked up): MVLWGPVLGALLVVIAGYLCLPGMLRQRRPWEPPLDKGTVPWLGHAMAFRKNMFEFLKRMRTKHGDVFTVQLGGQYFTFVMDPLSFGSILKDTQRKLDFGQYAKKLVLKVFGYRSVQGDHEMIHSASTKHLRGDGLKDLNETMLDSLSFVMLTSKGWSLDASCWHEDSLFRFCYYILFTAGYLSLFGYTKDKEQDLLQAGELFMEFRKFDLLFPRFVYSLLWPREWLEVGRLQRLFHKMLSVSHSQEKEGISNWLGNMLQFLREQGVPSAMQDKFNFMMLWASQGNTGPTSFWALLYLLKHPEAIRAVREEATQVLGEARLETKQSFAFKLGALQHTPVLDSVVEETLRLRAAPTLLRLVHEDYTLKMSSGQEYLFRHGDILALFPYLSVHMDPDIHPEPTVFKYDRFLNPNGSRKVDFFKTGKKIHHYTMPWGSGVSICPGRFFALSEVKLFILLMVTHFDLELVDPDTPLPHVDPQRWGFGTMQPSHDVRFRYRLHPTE
SMILES	target or system	test	test system	setting	scale	quantity	value
O=C(NO)c1ccc(F)cc1				hydroxamic acid		pKa	8.81
NC(=O)c1ncn([C@@H]2O[C@H](CO)[C@@H](O)[C@H]2O)c1O	uncharacterized protein (Trichomonas vaginalis, UniProt A2EYV3)	inhibitor				IC50	> 250 µM
CCOc1ccc(S(=O)(=O)Nc2ccc(Cl)cc2C#Cc2cnc(C(=O)O)cc2OC)c2ncccc12	human AVPR1A					IC50	7.1 µM
CC[C@@H]1C(=O)N(C)c2cnc(Nc3ccc(C(=O)N[C@H]4CC[C@H](N5CCN(CC6CC6)CC5)CC4)cc3OC)nc2N1C(C)C	PLK1	inhibitor				IC50	0.00087 µM
O=C(NCc1ncc(C(F)(F)F)cc1Cl)c1ccc2c(c1)C1(CCS(=O)(=O)CC1)[C@@H](C1CC1)N2S(=O)(=O)c1ccc(F)cc1	MAPK3	enzyme activity, Eurofins-Panlabs panel				IC50	4.87 µM
NCCc1c[nH]cn1	uncharacterized protein (Ixodes scapularis, UniProt A0A0N9E2I2)	inhibitor		concentration not given		activity	inactive
O=C(c1ccc(Cl)cc1)N(Cc1ccccc1)C1CCCCC1	RAGE	binding				Kd	0.015 µM
N[C@@H]1c2cccnc2[C@H](OC(=O)N2CCC(n3c(=O)[nH]c4ncccc43)CC2)CC[C@H]1c1cccc(F)c1F			human, severe hepatic impairment		relative to: normal hepatic function	unbound AUC ratio	3.9 fold
Cc1ncc(CO)c(C=NNC(=O)c2ccccc2Cl)c1O			rabbit	intravenous, dose not given		half-life	28 min
COc1ccc(-c2coc3cc(O)ccc3c2=O)cc1	Caco-2 monolayers			concentration not given		TEER increase	no effect
C[C@@H]1CN(c2cc(-c3n[nH]c4ccc(OC5(C)CC5)cc34)ncn2)C[C@H](C)O1	HTR2B	radioligand binding				IC50	1.17 µM
C=CC(=O)N1CCC[C@@H](n2nc(-c3ccc(Oc4ccccc4)cc3)c3c(N)ncnc32)C1	Tyrosine-protein kinase ITK/TSK (ITK, Homo sapiens, UniProt Q08881)		human subjects, PBMCs	up to 840 mg		receptor occupancy	50%
COc1ccc(-c2coc3cc(O)cc(O)c3c2=O)cc1	Caco-2 monolayers			concentration not given		TEER increase	≤ 36%
CC(=O)N[C@@H](CS)C(=O)O				thiol group		pKa	9.52
COc1cc2c3c(n(CCCN4CCOCC4)c(=O)c2cc1OC)-c1cc2c(cc1C3=O)OCO2			human patients			clearance	1.54 L/h/m²
COc1cc2oc(-c3ccc(O)c(O)c3)cc(=O)c2c(O)c1O	Hepatitis C virus	viral replication and release		concentration not given		inhibition	no inhibition
CO[C@@H](C(=O)N1Cc2n[nH]c(NC(=O)c3ccc(N4CCN(C)CC4)cc3)c2C1)c1ccccc1			rat	intravenous infusion, 6-h repeated infusions		MTD	720 mg/m2
O=c1c(O)c(-c2ccc(O)c(O)c2)oc2cc(O)cc(O)c12	dengue virus 2 NS2B-NS3 protease	enzyme activity, inhibitor		pH 9.0		IC50	35.2 ± 2.3 µM
NCCc1ccc(O)c(O)c1	uncharacterized protein (Ixodes scapularis, UniProt A0A0N9E2I2)	inhibitor		concentration not given		activity	inactive
Clc1ccc(C(Cn2ccnc2)OCc2ccsc2Cl)c(Cl)c1 (centres unmarked)	7-alpha-hydroxycholest-4-en-3-one 12-alpha-hydroxylase	binding				Kd	~0.2 µM
O=C(Nc1nc2ccccc2s1)c1cccc2c1CN(c1nc(C(=O)O)c(CCOc3ccc(-n4ncc5cncnc54)cc3)s1)CC2	BCL2L1	cell-based				EC50	> 10 µM
Cc1cc2c(s1)Nc1ccccc1N=C2N1CCN(C)CC1			healthy male volunteers	dose not given, added: carbamazepine 200 mg twice daily for 2 weeks		Cmax decrease	25%
O=c1ccc2nc3ccc(O)cc3oc-2c1						pKa	~6
NC(=O)c1ncn([C@@H]2O[C@H](CO)[C@@H](O)[C@H]2O)n1	uncharacterized protein (Trichomonas vaginalis, UniProt A2EYV3)	inhibitor				IC50	> 50 µM
CC(C)CCC[C@@H](C)[C@H]1CC[C@H]2[C@@H]3[C@H](O)CC4=CC(=O)CC[C@]4(C)[C@H]3CC[C@]12C	7-alpha-hydroxycholest-4-en-3-one 12-alpha-hydroxylase	substrate				Km	0.5 µM

For quick reference, copied from above (series 1):
Structure (SMILES)	activity
COc1cc2nc(N3CCN(C(=O)c4ccco4)CC3)nc(N)c2cc1OC	inactive
Cc1cc2c(s1)Nc1ccccc1N=C2N1CCN(C)CC1	inactive
O=C(CCCN1CCC(O)(c2ccc(Cl)cc2)CC1)c1ccc(F)cc1	inactive
CN1CCN2c3ncccc3Cc3ccccc3C2C1 (centres unmarked)	inactive
CC1=C(C(=O)O)N2C(=O)[C@@H](NC(=O)[C@H](N)c3ccccc3)[C@H]2SC1.O	inactive
CCOC(=O)OC(C)OC1=C(C(=O)Nc2ccccn2)N(C)S(=O)(=O)c2ccccc21 (centres unmarked)	inactive
